Measured values of several laboratories.
Protocols differ between the studies behind these lines. Values joined by “and” are separate records of one study, mostly repeats; a detail may differ. Numbers after ± are the reported error.
Chain of UniProt Q92887 (whole entry, looked up): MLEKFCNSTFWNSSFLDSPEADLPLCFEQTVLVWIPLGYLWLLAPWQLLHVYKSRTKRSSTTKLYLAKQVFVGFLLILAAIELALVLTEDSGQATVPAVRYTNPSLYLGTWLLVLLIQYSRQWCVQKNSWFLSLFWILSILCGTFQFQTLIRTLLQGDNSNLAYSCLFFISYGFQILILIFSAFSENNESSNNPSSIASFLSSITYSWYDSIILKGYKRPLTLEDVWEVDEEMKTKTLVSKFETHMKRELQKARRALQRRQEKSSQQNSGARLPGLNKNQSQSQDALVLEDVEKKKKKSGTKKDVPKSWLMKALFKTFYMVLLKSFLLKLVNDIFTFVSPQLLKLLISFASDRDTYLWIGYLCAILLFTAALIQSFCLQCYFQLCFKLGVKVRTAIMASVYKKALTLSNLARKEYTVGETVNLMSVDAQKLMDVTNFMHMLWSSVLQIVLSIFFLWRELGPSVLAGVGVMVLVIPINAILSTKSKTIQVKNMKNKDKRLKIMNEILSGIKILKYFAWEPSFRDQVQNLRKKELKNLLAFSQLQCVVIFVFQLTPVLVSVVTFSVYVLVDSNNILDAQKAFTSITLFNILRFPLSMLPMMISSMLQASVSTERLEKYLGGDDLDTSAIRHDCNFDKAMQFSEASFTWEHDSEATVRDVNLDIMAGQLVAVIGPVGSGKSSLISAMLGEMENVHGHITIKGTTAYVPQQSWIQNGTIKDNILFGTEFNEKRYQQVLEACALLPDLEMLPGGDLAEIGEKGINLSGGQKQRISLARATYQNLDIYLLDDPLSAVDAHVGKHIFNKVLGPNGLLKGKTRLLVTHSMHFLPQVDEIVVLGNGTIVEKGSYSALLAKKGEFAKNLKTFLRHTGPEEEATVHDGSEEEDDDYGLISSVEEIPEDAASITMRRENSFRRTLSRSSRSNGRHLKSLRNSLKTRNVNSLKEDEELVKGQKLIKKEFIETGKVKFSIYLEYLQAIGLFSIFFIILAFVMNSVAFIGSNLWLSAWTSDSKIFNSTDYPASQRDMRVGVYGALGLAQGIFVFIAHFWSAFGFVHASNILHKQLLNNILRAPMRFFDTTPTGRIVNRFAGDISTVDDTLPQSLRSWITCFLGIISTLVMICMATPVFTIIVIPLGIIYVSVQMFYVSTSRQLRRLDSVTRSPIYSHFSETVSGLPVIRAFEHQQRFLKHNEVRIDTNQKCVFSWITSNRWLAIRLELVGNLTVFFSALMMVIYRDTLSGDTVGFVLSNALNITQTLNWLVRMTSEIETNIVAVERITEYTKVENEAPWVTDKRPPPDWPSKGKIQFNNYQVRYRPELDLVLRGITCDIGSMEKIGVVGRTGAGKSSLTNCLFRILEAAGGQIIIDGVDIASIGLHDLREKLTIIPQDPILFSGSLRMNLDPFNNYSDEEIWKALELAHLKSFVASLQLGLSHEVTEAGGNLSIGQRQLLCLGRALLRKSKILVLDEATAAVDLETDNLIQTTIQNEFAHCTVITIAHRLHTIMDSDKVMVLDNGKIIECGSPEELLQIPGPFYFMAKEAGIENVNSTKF

| Molecule | tested on | test | system | setting | scale | quantity | value |
| --- | --- | --- | --- | --- | --- | --- | --- |
| C[C@@H](O)[C@@H]1NC(=O)[C@H](CCCCN)NC(=O)[C@@H](Cc2c[nH]c3ccccc23)NC(=O)[C@H](Cc2ccc(O)cc2)NC(=O)[C@@H](NC(=O)[C@@H](Cc2ccccc2)NC(=O)CN2CCN(CC(=O)O)CCN(CC(=O)O)CCN(CC(=O)O)CC2)CSSC[C@@H](C(=O)N[C@H](CO)[C@@H](C)O)NC1=O [gallium-67 labelled] |  | gamma counting | ICR mice, male, blood | iv, 11 kBq/mouse, 3 h |  | tissue uptake | 0.09 ± 0.01 %ID/g |
| CNS(=O)(=O)Nc1nccc(Cc2c(C)c3ccc(Oc4ncccc4F)cc3oc2=O)c1F | AN3-CA | cell viability, CellTiter-Glo |  | 7 days |  | IC50 | 32.4 nM |
| Nc1ncc(-c2cc(-c3cnn(CC(F)(F)F)c3)ncc2F)nc1C(=O)NC1CNCC(F)C1 (stereo not drawn) | DAPK1 | KINOMEscan |  | 1 µM | relative to: DMSO control | remaining binding | 94% |
| ABCC2 (Homo sapiens, UniProt Q92887) | O=C(c1ccc(OCCN2CCCCC2)cc1)c1c(-c2ccc(O[C@@H]3O[C@H](C(=O)O)[C@@H](O)[C@H](O)[C@H]3O)cc2)sc2cc(O[C@@H]3O[C@H](C(=O)O)[C@@H](O)[C@H](O)[C@H]3O)ccc12 | steady-state kinetics | Sf9 vesicles | pH 7, 37 °C, not purified, added: ATP |  | Km | 36.6 µM |
| CC(C)C[C@@H](NC(=O)[C@@H](CC(C)C)NC(=O)[C@@H](CC(=O)O)NC(=O)[C@@H](CC(C)C)NC(=O)[C@@H](CC(C)C)NC(=O)[C@@H](CC(C)C)NC(=O)[C@H](NC(=O)[C@@H](CC(=O)O)NC(=O)[C@H](NC(=O)[C@H]1CCCN1C(=O)[C@@H](Cc1ccccc1)NC(=O)[C@@H](CC(C)C)NC(=O)[C@@H](CC(C)C)NC(=O)[C@@H](CC(=O)O)NC(=O)[C@@H](CC(C)C)NC(=O)[C@@H](Cc1ccc(O)cc1)NC(=O)[C@@H](C)NC(=O)[C@@H](CCCNC(=N)N)NC(=O)[C@@H](Cc1c[nH]c2ccccc12)NC(=O)[C@H]1CCCN1C(=O)[C@@H](CC(N)=O)NC(=O)[C@@H](CCC(N)=O)NC(=O)[C@@H](CC(=O)O)NC(=O)[C@@H](CC(=O)O)NC(=O)[C@@H](CSC1CC(=O)N(CCNC(=O)CN2CCN(CC(=O)O)CCN(CC(=O)O)CC2)C1=O)NC(=O)[C@@H](C)N)[C@H](C)O)[C@H](C)O)C(=O)N[C@H](Cc1c[nH]c2ccccc12)C(=O)O (stereo partly drawn) [copper-64 labelled] |  |  | C57BL/6 mice, female, B16-F10 melanoma, blood | intravenous, 4 h |  | tissue uptake | 19.5 %ID/g |
| CC(C)C[C@H](NC(=O)[C@@H](CCCCNC(=O)[C@@H](Cc1ccccc1)NC(=O)CCCCCNC(=O)CN1CCN(CC(=O)O)CCN(CC(=O)O)CCN(CC(=O)O)CC1)NC(=O)[C@H](Cc1ccc(O)cc1)NC(=O)[C@H](CO)NC(=O)[C@H](Cc1c[nH]c2ccccc12)NC(=O)[C@H](Cc1c[nH]cn1)NC(=O)[C@@H]1CCC(=O)N1)C(=O)N[C@@H](CCCNC(=N)N)C(=O)N1CCC[C@H]1C(=O)NCC(N)=O [indium-111 labelled] |  |  | female athymic nude mice, spleen | intravenous, 0.037 MBq, 2 h |  | tissue uptake | 0.1 ± 0.03 %ID/g |
| CCCC[C@H](NC(=O)COCCOCCNC(=O)CN1CCN(CC(=O)O)CCN(CC(=O)O)CC1)C(=O)N[C@H]1CC(=O)NCCCC[C@@H](C(N)=O)NC(=O)[C@H](Cc2c[nH]c3ccccc23)NC(=O)[C@H](CCCNC(=N)N)NC(=O)[C@@H](Cc2ccccc2)NC(=O)[C@H](Cc2c[nH]cn2)NC1=O [technetium-99m labelled] |  |  | C57 mouse, stomach | intravenous, 0.037 MBq, 24 h |  | tissue uptake | 0.02 ± 0.01 %ID/g |
| CC(C)C[C@H](NC(=O)[C@H](Cc1ccc(O)cc1)NC(=O)[C@@H](CCCNC(=N)N)NC(=O)[C@@H](CO)NC(=O)[C@H](Cc1ccccc1)NC(=O)[C@H](CC1CCCCC1)NC(=O)[C@H](CC(=O)O)NC(=O)CN1CCN(CC(=O)O)CCN(CC(=O)O)CCN(CC(=O)O)CC1)C(=O)N[C@@H](Cc1c[nH]c2ccccc12)C(=O)N[C@@H](CO)C(=O)O [copper-64 labelled] |  |  | human, muscle | concentration not given, 24 h |  | activity concentration | 186 Bq/mL and 209 Bq/mL and 166 Bq/mL and 165 Bq/mL and 230 Bq/mL and 235 Bq/mL |
| C=C1CC[C@H](OCCCNC(=O)CCOCCOCCOCCOCCOCCOCCOCCOCCOCCOCCOCCOCCOCCOCCOCCOCCOCCOCCOCCOCCOCCOCCOCCOCCOCCOCCOCCOCCOCCOCCOCCOCCOCCOCCOCCOCCNC(=O)CCN2C(=O)CC(SC[C@H](NC(=O)[C@H](Cc3ccccc3)NC(=O)[C@H](CC(N)=O)NC(=O)[C@H](Cc3c[nH]cn3)NC(=O)[C@@H](NC(=O)[C@H](CC(=O)O)NC(=O)[C@H](CCC(N)=O)NC(=O)[C@H](CC(C)C)NC(=O)[C@H](CCCCN)NC(=O)[C@H](CCCCN)NC(=O)[C@H](CCCNC(=N)N)NC(=O)[C@H](CC(C)C)NC(=O)[C@H](Cc3c[nH]c4ccccc34)NC(=O)[C@H](CCC(=O)O)NC(=O)[C@@H](NC(=O)[C@H](CCCNC(=N)N)NC(=O)[C@H](CCC(=O)O)NC(=O)[C@H](CCSC)NC(=O)[C@H](CO)NC(=O)[C@H](CC(N)=O)NC(=O)[C@H](CC(C)C)NC(=O)[C@H](Cc3c[nH]cn3)NC(=O)[C@H](CCCCN)NC(=O)CNC(=O)[C@H](CC(C)C)NC(=O)[C@H](CC(N)=O)NC(=O)[C@H](Cc3c[nH]cn3)NC(=O)[C@H](CCSC)NC(=O)[C@H](CC(C)C)NC(=O)[C@H](CCC(N)=O)NC(=O)[C@@H](NC(=O)[C@H](CCC(=O)O)NC(=O)[C@H](CO)NC(=O)[C@@H](NC(=O)[C@@H](N)CO)C(C)C)[C@@H](C)CC)C(C)C)C(C)C)C(=O)O)C2=O)C/C1=C/C=C1\CCC[C@]2(C)[C@@H]([C@H](C)CCCC(C)(C)O)CC[C@@H]12 (stereo partly drawn) |  |  | male Sprague-Dawley rat, plasma | subcutaneous, 30 µg/kg, single dose |  | clearance | 0.402 mL/min/kg |
| Cc1ncsc1-c1ccc(C(C)NC(=O)C2CC(O)CN2C(=O)C(NC(=O)CCCCCCCCCCN2CCCC(Nc3ncc(Cl)c(Nc4ccccc4S(=O)(=O)C(C)C)n3)C2)C(C)(C)C)cc1 (stereo not drawn) | 22Rv1 | RNA-seq, refers to: NUMBL mRNA |  | concentration not given | relative to: DMSO | log2 fold change | -1.12 |
| CCCC[C@H](NC(=O)CCCCCCCNC(=O)CN1CCN(CC(=O)O)CCN(CC(=O)O)CC1)C(=O)N[C@H]1CC(=O)NCCCC[C@@H](C(N)=O)NC(=O)[C@H](Cc2c[nH]c3ccccc23)NC(=O)[C@H](CCCNC(=N)N)NC(=O)[C@@H](Cc2ccccc2)NC(=O)[C@H](Cc2c[nH]cn2)NC1=O [technetium-99m labelled] |  |  | C57 mouse, skin | intravenous, 0.037 MBq, 24 h |  | tissue uptake | 0.33 ± 0.36 %ID/g |
| COC1CN([C@H]2CC[C@H]([C@@]3(C)Oc4c(Cl)cc(C(=O)NCc5c(SC)cc(C)[nH]c5=O)c(C)c4O3)CC2)C1 |  | RNA-seq, refers to: MTUS1 | human, whole blood | dose not given, 24 h | relative to: pretreatment baseline | log2 fold change | 1.81 |

Some of these lines once more:
| Molecule | tested on | test | system | setting | scale | quantity | value |
| --- | --- | --- | --- | --- | --- | --- | --- |
| CCCC[C@H](NC(=O)CCCCCCCNC(=O)CN1CCN(CC(=O)O)CCN(CC(=O)O)CC1)C(=O)N[C@H]1CC(=O)NCCCC[C@@H](C(N)=O)NC(=O)[C@H](Cc2c[nH]c3ccccc23)NC(=O)[C@H](CCCNC(=N)N)NC(=O)[C@@H](Cc2ccccc2)NC(=O)[C@H](Cc2c[nH]cn2)NC1=O [technetium-99m labelled] |  |  | C57 mouse, skin | intravenous, 0.037 MBq, 24 h |  | tissue uptake | 0.33 ± 0.36 %ID/g |
